Experimental data from different studies.
Each numbered part is a random draw from the data of one study; scales do not carry over between parts. Substitutions count along the parent as printed.

Block 1
Target: ABI1, truncated, D143A, DHFR fusion (Arabidopsis thaliana)
Technique: DHFR PCA, deep sequencing
Medium: yeast
Setting: methotrexate growth selection, single substitutions
Together with: (+)-ABA 0.39 µM
Relative to: wild-type fitted maximum
Reading: higher = stronger binding
Starting sequence: PYL1, truncated, DHFR fusion (Arabidopsis thaliana); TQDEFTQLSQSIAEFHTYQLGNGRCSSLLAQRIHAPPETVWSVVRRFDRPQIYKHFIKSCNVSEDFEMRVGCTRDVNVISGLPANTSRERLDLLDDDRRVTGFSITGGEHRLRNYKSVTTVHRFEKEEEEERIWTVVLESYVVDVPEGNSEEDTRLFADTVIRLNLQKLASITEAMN
For `E152I`, “relative binding score” read -1.78%.
`R88Y` — result for “relative binding score”: 33.3%.
`A158G`: “relative binding score” -5.74%.
For `T173E`, “relative binding score” read -3.47%.
Under “relative binding score”, `R98F` is recorded as -0.392%.
`T106H`: “relative binding score” 8.28%.
`H110R`: “relative binding score” 14.5%.
`N22M` — result for “relative binding score”: 33.9%.
Under “relative binding score”, `L29V` is recorded as 46.3%.
`R163M`: “relative binding score” 30.1%.

Block 2
Target: CCND1, cyclin fold, Cln2 fusion (human)
Technique: yeast growth competition, sequencing
Medium: yeast
Setting: weak parent motif
Relative to: not given
Reading: higher = stronger binding
Starting sequence: ORC1 docking peptide (human); PRARKRLELGNLG; partner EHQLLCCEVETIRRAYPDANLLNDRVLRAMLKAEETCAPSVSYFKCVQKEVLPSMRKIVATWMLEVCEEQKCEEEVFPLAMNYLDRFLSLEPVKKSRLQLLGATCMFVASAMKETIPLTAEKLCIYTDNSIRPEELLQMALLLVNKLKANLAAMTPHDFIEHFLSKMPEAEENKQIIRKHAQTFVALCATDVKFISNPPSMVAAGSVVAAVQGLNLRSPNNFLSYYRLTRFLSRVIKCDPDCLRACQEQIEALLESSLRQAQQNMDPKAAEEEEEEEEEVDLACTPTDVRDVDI
Under “normalised enrichment score”, `A3N` is recorded as 0.244.
Under “normalised enrichment score”, `P1G` is recorded as -0.863.
`A3P`: “normalised enrichment score” -0.0713.
`A3K` — result for “normalised enrichment score”: 0.4.
`G10M`: “normalised enrichment score” 0.308.
`A3G`: “normalised enrichment score” -0.748.
For `N11A`, “normalised enrichment score” read -0.209.
`E8Q` — result for “normalised enrichment score”: -0.0669.
For `K5Y`, “normalised enrichment score” read -0.244.
`G10Q`: “normalised enrichment score” -0.463.
Under “normalised enrichment score”, `R6T` is recorded as 0.435.
`R6S`: “normalised enrichment score” -0.0921.
Under “normalised enrichment score”, `L7I` is recorded as 0.14.
`P1N` — result for “normalised enrichment score”: 0.408.
`G13A`: “normalised enrichment score” -0.474.

Block 3
Target: Hepatocyte nuclear factor 3-alpha (Foxa1, Mus musculus, UniProt P35582, residues 1-468, full length assumed)
Chain of UniProt P35582 (whole entry, looked up): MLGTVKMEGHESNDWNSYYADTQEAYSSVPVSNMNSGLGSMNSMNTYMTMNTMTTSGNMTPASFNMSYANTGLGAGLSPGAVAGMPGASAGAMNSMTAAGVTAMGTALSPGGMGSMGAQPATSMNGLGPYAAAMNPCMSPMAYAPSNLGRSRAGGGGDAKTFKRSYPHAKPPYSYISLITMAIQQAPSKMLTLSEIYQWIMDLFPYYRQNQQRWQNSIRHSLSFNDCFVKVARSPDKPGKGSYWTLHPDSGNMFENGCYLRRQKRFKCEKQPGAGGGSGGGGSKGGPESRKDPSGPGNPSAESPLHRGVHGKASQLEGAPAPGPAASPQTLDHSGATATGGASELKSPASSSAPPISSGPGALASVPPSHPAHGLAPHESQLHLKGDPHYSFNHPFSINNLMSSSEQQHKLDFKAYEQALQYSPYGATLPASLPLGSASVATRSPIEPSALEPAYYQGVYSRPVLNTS
Technique: EMSA with sequencing
Form: double-stranded DNA, one strand shown
Medium: in vitro
Tested at: 10 and 20 nM
Setting: whole designed probe, mean of two concentrations, ends assumed
Relative to: negative control set to 0
Reading: higher = stronger binding
Shared flanks, not repeated: GTGAGCGGTGCCCATTGATGGGGAAC … TTTCACTGGGATCGTGGGGAC
`ATATGACAAAAGGCATGCATGTGACTTTATTTTTTCAATGGCTACTTTTCTTCTTAAATCAGGCTCCCTGATTTTAACTAAAAAATAAATAAGTAAACAAGAAAACACTGGGTTACTCTCAAAGAGATCACATTTTTAAAAACTCAAATGATTTCCTACAGGCAGTCTGTTTTGCAGTGTATTTTTTTTTCTT`: “normalised bound fraction” 0.381 ratio.
For `CTGTGTGATGTGGTAATCTAAATTTGAACAGATGCCCCGCATGTTATGTCAATATTTGAATTGCTATTATGGCTATGAATCAATATTTCTTTGTAAACATCCTTATTTCAAGTGGCTTGAATCACAGCCCTATGGTTAAATACACAGACTGTAGTTTAACTGCCTGATTTCATAACCCAACTCCAGCATTCAC`, “normalised bound fraction” read 0.43 ratio.
`TAGCCCCTAAAATACTCCTCCTTTACGCCAAAAGATTCTCTTTTCAGCTGTGTTTAAAGTGAAACAATTTTTTATTACGAAAAATTTTGAAAATGTAATCTTGCAAAAAAGATAAGCAAGACTGCTATAATCTAGAGCAAACCAATCTCAATATTTTGATGCATAGCCTTCTAAAATTTTTCTCTTTCTATAT`: “normalised bound fraction” -0.0186 ratio.
Under “normalised bound fraction”, `GAATCATGCACAATTGTACCAGGCAGCCCCGAGCCAAGCCCTTTTATGACTTCCTTCCTTTCCACATATTGCTTCCCCTGCCACAACTGCCCTTGTTTGCCTTTCCTCCCCCCATTTCTTTATATGGTGCAACATCTAACACTTAGTTCTCAAATTCTGCCCAAATATAATCCTGGTGAACACAAACATAACA` is recorded as 0.22 ratio.
Under “normalised bound fraction”, `CTAATTTACATGTAACTATAAAGTTCTTTATGTTAAGGAAACATGATTTGTCCAGCATAAGAAAATACTTTATTTCTTAGAAAGCAATATTCCTTGTTTACCTTGCTTCTTCTAAGGGAAGAAAAATTATATCTCTTATAATTACAGAATCATTTTCTGTTTTGGGGGATTTGGAGTTAGTGAGACTAAAAAA` is recorded as 0.227 ratio.
`GAGGGGACGCCCTGGAGCTCAGGTGCTCAAGGGCGTGCGCGGGGCTCGGCCGCCGGTGTCCCTGGAGATGCTTCTCTGGTCTGGTGTGACACGTGTGTACACAGTCCCCGCCCTCTGGTCAGCGCCCGGGTGCGTGTGCTCCCTCCCGACCACCCTGAGGAGCGAGGGTGCTGGTCCCCGAGAGGGCGGCGAG` — result for “normalised bound fraction”: 0.159 ratio.
Under “normalised bound fraction”, `ATCTTCCCCCTCTTCCTTGCCCCACCAGCTCACCTTCCCGGGTCAAAGTAAACAAGTGTTTACTTTGAAGCCGGCATTCGTTAACCCTCTTCTGGCGCAAACTGCCAAAGTAAACAGATGAATCATGGTCCTTTGGCGACGCCAGGCTCCGGGAGAGCAAAGCACCGTGTCAGGGCCATGATCCGGGGTGGCC` is recorded as 0.54 ratio.
`ATCCACGAACCTGGCCCTGTCTGGTAACCACAGTGAACCATCGCAAGATACAGCACTATGTGCCCAGTTGGGCTGGTAATGTCACACAAATGTGTCAACACTGGCACATCCTCAGGGACATAATGACTCACTTGTTTTTGGAGAGGGACTAGACCTTCATCCTTGAGGTGAAGAAGATTTTCTCTCCAGGGTG` — result for “normalised bound fraction”: 0.0463 ratio.

Block 4
Target: Interferon regulatory factor 7, full length, phosphomimetic (IRF7, Homo sapiens, UniProt Q92985, residues 1-503, S101K/S471D/S472D/S475D/S476D/S477D/S483D/S484D/S487D)
Technique: protein-binding microarray
Form: double-stranded DNA, one strand shown
Medium: in vitro
Tested at: 250 nM
Setting: 60-bp whole probe
Together with: salmon DNA 0.4 mg/ml
Relative to: random background probes
Reading: higher = stronger binding
Shared flanks, not repeated: GCCTAGCAC … GTCTTGATTCGCTTGACGCTGCTG
Construct (chain): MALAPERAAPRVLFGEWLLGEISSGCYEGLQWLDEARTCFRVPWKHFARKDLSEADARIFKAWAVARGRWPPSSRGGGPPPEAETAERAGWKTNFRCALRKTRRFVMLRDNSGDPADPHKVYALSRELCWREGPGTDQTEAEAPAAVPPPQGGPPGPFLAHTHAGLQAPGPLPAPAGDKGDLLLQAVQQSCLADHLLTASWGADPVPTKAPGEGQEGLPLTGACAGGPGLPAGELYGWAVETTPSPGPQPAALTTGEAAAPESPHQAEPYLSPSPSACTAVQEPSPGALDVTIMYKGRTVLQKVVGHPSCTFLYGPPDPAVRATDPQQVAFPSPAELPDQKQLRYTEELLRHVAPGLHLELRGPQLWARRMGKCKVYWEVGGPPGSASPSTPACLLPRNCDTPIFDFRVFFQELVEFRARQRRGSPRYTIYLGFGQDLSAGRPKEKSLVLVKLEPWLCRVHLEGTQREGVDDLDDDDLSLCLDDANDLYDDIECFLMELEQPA
With `TTTTGTTGTTTTTTGGTTTCGTGCTAG` the log fluorescence was 1.97 z-score.
With `GACGCACTGGGTTTCGGGACGTGCTAG` the log fluorescence was 1.97 z-score.
For `TTGGGTTTCGGGTTTCGGTTAGTGCTA`, the log fluorescence was 11.4 z-score.
`GACGGTCTCCTCATCCTGACGTGCTAG` gave a log fluorescence of -0.106 z-score.
For `TTATAACTGAGTTTCGATTAGTGCTAG`, the log fluorescence was 8.2 z-score.
The log fluorescence of `TTAGGTCTGCTTATCCTTTAGTGCTAG` is reported as 0.045 z-score.
`GACGGTTTCTTACTGCTGACGTGCTAG` has a log fluorescence of 0.893 z-score.
`GACGATATGAGACTGGAGACGTGCTAG` has a log fluorescence of -0.415 z-score.
For `GACGGTTTCGGTTCCGCGACGTGCTAG`, the log fluorescence was 12.8 z-score.
With `TCAATTTTCCCTCCCTAACTGTGCTAG` the log fluorescence was 1.27 z-score.
The log fluorescence of `TTAGGTCTCGGTCTCGCTTAGTGCTAG` is reported as 2.08 z-score.
With `CACACCCGGCTCCTCTGCCAGTGCTAG` the log fluorescence was -0.31 z-score.
The log fluorescence of `TCAATCCTTCATTTGAAACTGTGCTAG` is reported as 0.46 z-score.
With `GACGAACTGAGTATCGTGACGTGCTAG` the log fluorescence was -0.29 z-score.
The log fluorescence of `TTAGATCTCAGCCTCGATTAGTGCTAG` is reported as 0.144 z-score.
`TTTCCTTTGCCTCTGAGGCTGTGCTAG` has a log fluorescence of 2.1 z-score.
The log fluorescence of `TTAGAAATGAGTCTCGATTAGTGCTAG` is reported as 1.4 z-score.
The log fluorescence of `TTAGATGTCAGTTTCGATTAGTGCTAG` is reported as 8.15 z-score.
With `TCAAGAATCCCCTTCTAACTGTGCTAG` the log fluorescence was 0.00468 z-score.
`TCATGTCTGATTATTTAACTGTGCTAG` has a log fluorescence of -0.0102 z-score.

Block 5
Target: UBE2O UBC core domain (UniProt Q9C0C9)
Chain of UniProt Q9C0C9 (whole entry, looked up): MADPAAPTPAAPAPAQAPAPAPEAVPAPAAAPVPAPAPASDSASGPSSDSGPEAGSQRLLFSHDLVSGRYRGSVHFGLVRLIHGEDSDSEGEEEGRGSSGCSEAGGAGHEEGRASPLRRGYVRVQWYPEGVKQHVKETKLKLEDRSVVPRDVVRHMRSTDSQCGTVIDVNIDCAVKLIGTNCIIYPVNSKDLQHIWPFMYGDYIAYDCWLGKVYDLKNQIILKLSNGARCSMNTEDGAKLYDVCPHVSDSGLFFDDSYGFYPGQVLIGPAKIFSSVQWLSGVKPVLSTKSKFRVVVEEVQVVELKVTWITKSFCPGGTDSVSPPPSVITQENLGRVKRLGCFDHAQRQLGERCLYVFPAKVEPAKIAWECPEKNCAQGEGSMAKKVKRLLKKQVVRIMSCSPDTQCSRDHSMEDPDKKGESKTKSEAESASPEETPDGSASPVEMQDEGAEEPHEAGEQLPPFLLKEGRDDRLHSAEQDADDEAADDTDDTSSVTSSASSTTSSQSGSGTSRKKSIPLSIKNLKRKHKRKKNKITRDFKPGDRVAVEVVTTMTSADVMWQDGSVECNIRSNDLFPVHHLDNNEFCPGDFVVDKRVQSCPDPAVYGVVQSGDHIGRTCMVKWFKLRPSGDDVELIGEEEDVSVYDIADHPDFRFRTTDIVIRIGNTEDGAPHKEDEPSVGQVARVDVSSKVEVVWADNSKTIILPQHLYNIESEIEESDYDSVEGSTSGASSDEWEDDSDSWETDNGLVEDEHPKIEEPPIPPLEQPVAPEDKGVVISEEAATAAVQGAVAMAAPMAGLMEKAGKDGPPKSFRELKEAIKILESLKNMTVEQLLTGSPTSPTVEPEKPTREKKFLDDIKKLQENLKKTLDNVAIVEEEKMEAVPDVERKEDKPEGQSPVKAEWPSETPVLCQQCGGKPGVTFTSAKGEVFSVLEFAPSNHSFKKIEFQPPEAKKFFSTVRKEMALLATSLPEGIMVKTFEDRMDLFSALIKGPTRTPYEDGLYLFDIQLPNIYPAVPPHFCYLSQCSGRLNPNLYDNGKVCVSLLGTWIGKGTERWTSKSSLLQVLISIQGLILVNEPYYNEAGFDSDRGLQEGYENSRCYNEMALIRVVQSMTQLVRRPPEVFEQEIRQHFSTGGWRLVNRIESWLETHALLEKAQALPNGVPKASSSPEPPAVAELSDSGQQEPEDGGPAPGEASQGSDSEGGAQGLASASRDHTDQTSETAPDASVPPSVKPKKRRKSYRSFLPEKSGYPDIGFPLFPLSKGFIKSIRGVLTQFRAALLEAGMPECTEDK
Technique: yeast two-hybrid
Medium: yeast
Setting: mostly zero background
Relative to: not given
Reading: higher = stronger interaction
B1: MAP3K1 RING domain (UniProt Q13233); chain NSIKDEEEQMCPICLLGMLDEESLTVCEDGCRNKLHHHCMSIWAEECRRNREPLICPLCRSKWRSHDFYS
B2: UBOX5 RING domain (UniProt O94941); chain EQPGSILGPECASCKRVFSPYFKKEPVYQLPCGHLLCRPCLGEKQRSLPMTCTACQRPVASQDVLR
B3: SH3RF1 RING domain (UniProt Q7Z6J0); chain DESALLDLLECPVCLERLDASAKVLPCQHTFCKRCLLGIVGSRNELRCPECRTLVGSGVEEL
B4: RNF133 RING domain (UniProt Q8WVZ7); chain DEEINPNGDSCVICFERYKPNDIVRILTCKHFFHKNCIDPWILPHGTCPICKCDILKVLGIQ
For `AVPSGLEENLCKICMDSPIDCVLLECGHMVTCTKCGKRMNECPICRQYVIRAVHVF (RFFL RING domain (UniProt Q8WZ73))`, “lacZ reporter activity” read 0.
`B1 (MAP3K1 RING domain)`: “lacZ reporter activity” 0.
`B2 (UBOX5 RING domain)` — result for “lacZ reporter activity”: 0.
Under “lacZ reporter activity”, `B3 (SH3RF1 RING domain)` is recorded as 0.
Under “lacZ reporter activity”, `KLRKLKEAMLCMVCCEEEINSTFCPCGHTVCCESCAAQLQSCPVCRSRVEHVQHVY (MYLIP RING domain (UniProt Q8WY64))` is recorded as 0.
`KETIKKTTKPCPRCHVPVEKNGGCMHMKCPQPQCRLEWCWNCGCEWNRVCMG (PRKN RING domain (UniProt O60260))`: “lacZ reporter activity” 0.
Under “lacZ reporter activity”, `AMYLQENGIDCPKCKFSYALARGGCMHFHCTQCRHQFCSGCYNAFYAKNKC (RNF31 RING domain (UniProt Q96EP0))` is recorded as 0.
`GSDDEEIPFKCFICRQSFQNPVVTKCRHYFCESCALQHFRTTPRCYVCDQQTNGVFNPA (RNF113A RING domain (UniProt O15541))` — result for “lacZ reporter activity”: 0.
Under “lacZ reporter activity”, `PEDRESLKSACVVCLSSFKSCVFLECGHVCSCTECYRALPEPKKCPICRQAITRVIPLY (MUL1 RING domain (UniProt Q969V5))` is recorded as 0.
`B4 (RNF133 RING domain)`: “lacZ reporter activity” 0.

A few entries again (block 2):
`A3K` — result for “normalised enrichment score”: 0.4.
`P1N` — result for “normalised enrichment score”: 0.408.
`E8Q` — result for “normalised enrichment score”: -0.0669.
`G13A`: “normalised enrichment score” -0.474.
